# Measured values collected from several papers.
# Numbered parts are unrelated; each lists some results of a single study.

# Set 1
# Target: Protein C-ets-1, full length (ETS1, Homo sapiens, UniProt P14921, residues 1-441)
# Sequence of UniProt P14921 (whole entry, looked up): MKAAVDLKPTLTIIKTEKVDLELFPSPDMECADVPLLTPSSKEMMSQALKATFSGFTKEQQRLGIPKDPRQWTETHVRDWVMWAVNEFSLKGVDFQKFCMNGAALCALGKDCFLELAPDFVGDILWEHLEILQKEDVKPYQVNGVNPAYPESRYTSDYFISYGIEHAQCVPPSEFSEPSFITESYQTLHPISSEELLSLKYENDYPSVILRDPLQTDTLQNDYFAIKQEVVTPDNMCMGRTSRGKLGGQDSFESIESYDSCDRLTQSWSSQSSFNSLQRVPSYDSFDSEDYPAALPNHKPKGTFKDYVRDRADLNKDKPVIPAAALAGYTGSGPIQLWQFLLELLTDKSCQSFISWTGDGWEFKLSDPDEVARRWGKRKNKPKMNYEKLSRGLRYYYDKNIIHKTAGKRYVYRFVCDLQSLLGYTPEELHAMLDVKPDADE
# Method: protein-binding microarray
# Form: hairpin DNA
# Sample: in vitro
# Concentration: not given
# Notes: whole hairpin DNA, median over replicate spots
# Relative to: not given
# Reading: higher = stronger binding
Strand,median fluorescence
GAGGCCAGCCGGAAGCGGCCTCCTGGCCGCTTCCGGCTGGCCTCACACTC (5mC at 16),6180 a.u.
GAGGCCAGTCGGAACGTGCCTCCTGGCACGTTCCGACTGGCCTCACACTC (5mC at 29),584 a.u.
GAGGCCAGCCCGAAGTTGCCTCCTGGCAACTTCGGGCTGGCCTCACACTC (5mC at 11 33),546 a.u.
GAGGCCAGTCGGAAGCGGCCTCCTGGCCGCTTCCGACTGGCCTCACACTC (5mC at 28),2200 a.u.
GAGGCCAGCCGGATGTTGCCTCCTGGCAACATCCGGCTGGCCTCACACTC,7870 a.u.
GAGGCCAGCCGTAAGTTGCCTCCTGGCAACTTACGGCTGGCCTCACACTC,557 a.u.
GAGGCCCGCCGGAAGTTGCCTCCTGGCAACTTCCGGCGGGCCTCACACTC (5mC at 37),10400 a.u.
GAGGCCAGCCGCGAGTTGCCTCCTGGCAACTCGCGGCTGGCCTCACACTC (5mC at 32),552 a.u.
GAGGCCAGCCGGAAGTCGCCTCCTGGCGACTTCCGGCTGGCCTCACACTC (5mC at 17),11100 a.u.
GAGGCCAGTCGGCGGTTGCCTCCTGGCAACCGCCGACTGGCCTCACACTC,562 a.u.
GAGGCCAGCCGGAAGTGGCCTCCTGGCCACTTCCGGCTGGCCTCACACTC,9830 a.u.
GAGGCCAGCCCGAAGTTGCCTCCTGGCAACTTCGGGCTGGCCTCACACTC (5mC at 33),557 a.u.

# Set 2
# Target: Prothrombin, mature alpha-thrombin (F2, Homo sapiens, UniProt P00734)
# Method: aptamer microarray, sandwich
# Form: DNA with 2'F-ANA
# Sample: in vitro
# Concentration: 200 nM
# Notes: whole 15-mer aptamer, many near background
# With: Cy3 exosite-II aptamer, 400 nM
# Reading: higher = stronger binding
# Strand: GGTTGGTGTGGTTGG
Modification,mean fluorescence intensity [a.u.]
2'F-ANA at 2 4 6 7 8 11 12 15,402
2'F-ANA at 1 3 4 7 8 11 13 14,104
2'F-ANA at 2 4 5 7 10 13 14 15,41.9
2'F-ANA at 1 2 6,165
2'F-ANA at 1 3 6 7 8 9 14 15,90.8
2'F-ANA at 1 3 7 11 12 13 14 15,226
2'F-ANA at 1 6 7 10 11 13 14 15,54.1
2'F-ANA at 3 4 6 7 10,322
2'F-ANA at 1 2 4 5 7 9 10 12 13,151
2'F-ANA at 1 2 3 6 9,201
2'F-ANA at 1 3 4 6 7 9 12 13 15,230
2'F-ANA at 2 3 5 10 11 13,57.3
2'F-ANA at 5 9 12 13 14,42.2
2'F-ANA at 1 2 3 4 5 7 10 12 14 15,58.4
2'F-ANA at 2 3 4 9 12 14 15,316
2'F-ANA at 1 4 6 8 9 12 14,57.2
2'F-ANA at 1 5 7 9 10 11 12 14 15,192

# Set 3
# Target: Sal-like protein 4, full length isoform B (SALL4, Homo sapiens, UniProt Q9UJQ4-2, residues 1-616)
# Method: universal PBM
# Form: double-stranded DNA, one strand shown
# Sample: in vitro
# Concentration: not given
# Notes: 8-mer, flanks averaged, mean of replicates
# Reading: higher = stronger binding
Strand,E-score
GTACGTAC,0.0121
CATCCACG,0.0142
CCACAGAG,-0.101
AGCGTCAC,-0.216
AGTCCACC,-0.251
TTCCAGAA,0.0177
TCAACCGA,0.0106
CCCTGAGC,-0.311
CGAGCTCA,-0.211
ATCTAAAT,0.264
AGGTTGCG,-0.0506
AGATAGCA,0.0799
CAATTTAA,0.318
CAGACACG,-0.223
AAAGCCCC,-0.262
AGCTCGAA,-0.189
CTAGCCAA,0.0382
GGCAGACA,-0.142
AGTGACAG,0.0262
ACGCCGTC,-0.208
AATAGGGT,0.246
CGGCACAC,-0.243
CCATGGCC,-0.32
GATGAAGC,-0.0816
AGTTAAGG,0.0059

# Set 4
# Target: Histone acetyltransferase KAT6A, winged helix 2, GST fusion (KAT6A, Homo sapiens, UniProt Q92794, residues 85-181)
# Method: protein binding microarray
# Form: double-stranded DNA, one strand shown
# Sample: in vitro
# Concentration: not given
# Notes: 8-mer, flanks averaged, mean of 2 arrays, mostly near background
# Relative to: not given
# Reading: higher = stronger binding
# Construct (chain): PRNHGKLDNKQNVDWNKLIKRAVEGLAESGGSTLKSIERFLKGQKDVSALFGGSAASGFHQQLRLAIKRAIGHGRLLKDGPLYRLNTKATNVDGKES
Strand,E-score
AAAACAAC,-0.0574
GGTAACCA,-0.0213
CTAGTCAC,-0.0624
TATAAAAA,0.154
CCTCGCTC,0.295
CGTAGGGC,-0.0705
AACGCCAA,-0.022
GCATCAGA,0.11
ACCCCGGT,-0.138
AGTGTACC,-0.208
GATATGGA,0.0534
CTTGTTTC,-0.00241
AATTTTAC,0.0813
ACCCTAGG,-0.099
GGAGGTAC,-0.0926
GTTGGTGA,0.081
ATCAGACA,-0.0604
CCTTGACC,0.0898
CGCGGTAC,0.0961
GTCCCGTA,-0.09
CAAAACTC,0.0311
ATACTCTA,-0.0381
ATCGTACC,-0.175
GAGAGAGC,0.00534
ATCGAATA,-0.0866

# Set 5
# Target: RNA binding protein fox-1 homolog 2, RRM domain, GST-SBP tag (RBFOX2, Homo sapiens, UniProt O43251-10, residues 100-194)
# Method: RNA Bind-n-Seq
# Form: RNA
# Sample: in vitro
# Concentration: 365 nM
# Notes: natural RNA segment, single round, ends assumed
# Relative to: no-protein control
# Reading: higher = stronger binding
# Construct (chain): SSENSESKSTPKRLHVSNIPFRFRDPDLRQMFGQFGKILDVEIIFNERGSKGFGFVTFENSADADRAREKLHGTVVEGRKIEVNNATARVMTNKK
Strand,RBNS enrichment (R)
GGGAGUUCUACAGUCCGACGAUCUCAUGGUACAUUGCUAAGUCCAUGCUUGUGUGUGUGACAGUAGGCUUGAUAAUUUAUCUUAAAACACAGCAGCAUUGAAAUUUAGGAAAAGAAUAUUAAAUGCCUUUGGAUGGAAUUCUCGGGUGCCAA,1.11
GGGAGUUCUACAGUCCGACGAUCAAAGGGGAAGACCAGUGCUUCUUAAGACAGUGAGGGGUCUUCCUCCUGUGGCCAGGCGCUCCUGCACGUGCCCACUUCCUGCUCGGUACUGGUACUGGGUACAUGGGUAAUGGAAUUCUCGGGUGCCAA,0.411
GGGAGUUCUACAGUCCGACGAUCGGGGAAAAAUGAAAUUAUAAUGCAUUUGUAUUUCCAUUUCUUGCAAAUAAAUAUUUUUCUUAGUCAAUGUUGCCUGGUCUUUAAAUCCUGACAACCUGGUUUCAAAGGCAUGGAAUUCUCGGGUGCCAA,0.427
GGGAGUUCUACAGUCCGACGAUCGUAUUAAACUCCAAAUGAGCCAUAGGAAGGCACUACAUGAAAUAAUGCACUGAGUAUGCAAUGCUAUCACUGUCUUUGACUGUGAUUUUAUGUUUAAAAAGUAUGUUCUAUGGAAUUCUCGGGUGCCAA,0.372
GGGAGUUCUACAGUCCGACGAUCUCAUGCUUCUUCUCAUGGGGUGGGGUUGGGGCAAAGCCUCCUUUUUAAUACAUUAAGUGGGGUAGACUGAGGGAUUUUAGCCUCUUCCCUCUGAUUUUUCCUUUCGCGAAUGGAAUUCUCGGGUGCCAA,0.447
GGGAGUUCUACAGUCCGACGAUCUUCAUACCUUCUGAUGAAGUUGUACAACACCAGCAACAUUAUAAUGGCCCUGUAGCUCUGAAUGCUAUUUGUGUAACUGAAAGGUUGCACUCUAGGGUGAACCAAGCUAUUGGAAUUCUCGGGUGCCAA,0.341
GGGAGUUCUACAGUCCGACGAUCAGUUCAAACCUUCUGAGCCCUGCUGGGGACUUUUUUUUAGGCUGGGCCUUCUUCUCCAGAAGGCUGUUGCUGUCACUUGCUGCUAGGAGCCUCCAAGCUGAUCAAGCAAUUGGAAUUCUCGGGUGCCAA,0.281
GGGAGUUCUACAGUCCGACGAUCUUUAUGUAAGCAUGAAACACAGGCAGUAUGAGAGAAAGCAAGGCCCGUCAUGCUGUCCGUACACUACGUAUGCUGUAGAGCCAUUUUGUAUGUUGUGUAAAACAAAAAGCUGGAAUUCUCGGGUGCCAA,23.3
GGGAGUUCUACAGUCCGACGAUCAGGCAUGGUGGUUCAUGCCUGUAAUAGCACUUUGGGAGACUGAGGUGGGAGGAUCACUUGGGGCCAGGAGUUUGAGACCAGCUUGGGCAACACAGCGCAAUCUCGUCUCUUGGAAUUCUCGGGUGCCAA,0.477
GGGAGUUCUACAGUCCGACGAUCCUUUUUCCCAGGGAGCCGUUUCAGGGGUUCUGGGCAGUAGGCUGGGCCUGGCCUCAGAACCUGGUGGCUCCUGCCUGCUCCUUCACUUUUGUAAAACCAUCCCCUUCACCUGGAAUUCUCGGGUGCCAA,0.671
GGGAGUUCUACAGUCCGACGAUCUGUGUUCCUGGAGAAGGCAUUCCAGGGUUGAAUCUUGUCCCAGCCUCAGCCUGGGACACCUAGGUGGAGAGAGUGGUCUCCGCUCUGAAUUGGAUCCAGGGGACCUGGGCUGGAAUUCUCGGGUGCCAA,0.455
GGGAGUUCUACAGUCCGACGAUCAAAGUAGGUCCUUAUUUACAAGGCUGCGUUAAAGUUGUACUAGGCAAACACACUGAUGUAGGAAGCACGAGGAAAGGAAGACGUUUUGAUAUAGUGUUACUGUGAGCCUGUGGAAUUCUCGGGUGCCAA,2.42

# For quick reference, copied from above (set 4):
Strand,E-score
CGTAGGGC,-0.0705
AACGCCAA,-0.022
GCATCAGA,0.11
ACCCCGGT,-0.138
AGTGTACC,-0.208
GATATGGA,0.0534
CTTGTTTC,-0.00241
AATTTTAC,0.0813
ACCCTAGG,-0.099
GGAGGTAC,-0.0926
GTTGGTGA,0.081
ATCAGACA,-0.0604
CCTTGACC,0.0898
